# Measurements from different studies.
# A part holds a random share of what one study measured. Positions count from the first letter of the parent shown.

# Series 1 — target: CCNB1, cyclin fold, Cln2 fusion (human); technique: yeast growth competition, sequencing; medium: yeast; notes: weak parent motif; baseline: not given; direction: higher = stronger binding
# Parent: E2F3 docking peptide (human); PPAKRRLELGESG
Variant,normalised enrichment score
S12A,0.383
K4A,0.426
P1A,0.638
R5A,-0.0848
L9A,0.538
R5K,-0.637
L7A,0.51

# Series 2 — technique: universal PBM; molecule type: double-stranded DNA, one strand shown; medium: in vitro; tested at: 600 nM; direction: higher = stronger binding
# Target: Sal-like protein 4, full length isoform A (SALL4, Homo sapiens, UniProt Q9UJQ4, residues 1-1053)
# Sequence of UniProt Q9UJQ4 (whole entry, looked up): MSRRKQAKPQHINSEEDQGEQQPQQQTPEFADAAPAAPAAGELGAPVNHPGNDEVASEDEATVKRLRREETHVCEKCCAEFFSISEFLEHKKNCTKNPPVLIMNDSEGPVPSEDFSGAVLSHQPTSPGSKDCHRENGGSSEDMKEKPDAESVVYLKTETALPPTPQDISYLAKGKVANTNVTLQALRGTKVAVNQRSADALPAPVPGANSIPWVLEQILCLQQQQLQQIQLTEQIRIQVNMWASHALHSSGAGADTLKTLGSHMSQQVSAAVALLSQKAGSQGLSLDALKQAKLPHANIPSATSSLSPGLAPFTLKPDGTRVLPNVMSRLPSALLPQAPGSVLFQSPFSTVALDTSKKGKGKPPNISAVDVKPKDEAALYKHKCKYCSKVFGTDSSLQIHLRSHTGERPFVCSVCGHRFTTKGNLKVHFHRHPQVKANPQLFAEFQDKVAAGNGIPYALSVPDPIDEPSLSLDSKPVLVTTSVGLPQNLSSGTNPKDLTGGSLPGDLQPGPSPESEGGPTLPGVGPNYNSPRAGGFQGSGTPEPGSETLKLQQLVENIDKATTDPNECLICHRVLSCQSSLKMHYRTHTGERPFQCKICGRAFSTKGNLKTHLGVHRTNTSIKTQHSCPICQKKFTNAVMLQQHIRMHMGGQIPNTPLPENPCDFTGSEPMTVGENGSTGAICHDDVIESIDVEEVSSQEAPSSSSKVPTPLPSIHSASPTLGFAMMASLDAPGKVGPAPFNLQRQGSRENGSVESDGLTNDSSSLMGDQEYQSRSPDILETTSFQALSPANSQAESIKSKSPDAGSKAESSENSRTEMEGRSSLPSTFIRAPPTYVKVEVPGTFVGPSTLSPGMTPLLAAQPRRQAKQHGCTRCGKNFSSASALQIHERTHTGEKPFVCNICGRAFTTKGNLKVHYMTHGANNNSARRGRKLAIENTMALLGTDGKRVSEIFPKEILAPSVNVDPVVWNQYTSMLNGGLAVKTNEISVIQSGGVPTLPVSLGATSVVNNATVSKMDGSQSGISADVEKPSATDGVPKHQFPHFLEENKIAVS
# Notes: 8-mer, flanks averaged, mean of replicates
Oligonucleotide,E-score
AGCTCGCA,-0.173
CCGTAACG,-0.238
GATCCCAC,-0.117
CGATACCA,0.0745
TAAGATGA,0.152
CCGCTCGC,-0.23
ATGAACCA,0.165
GACAGCGA,-0.197
AAATGTAA,0.286
ACCCCCGC,-0.332
AAAGTAGC,0.0629
AGGACGAC,-0.322
GTAATTAA,0.316
ACGGGATG,-0.243

# Series 3 — technique: competition protein-binding microarray; molecule type: double-stranded DNA, one strand shown; medium: in vitro; tested at: 2 µM; added: Pho4 competitor, 0.05 µM; direction: higher = stronger binding; all sequences stand within: … GTCTTGATTCGCTTGACGCTGCTG
# Target: Centromere-binding protein 1, full length, His-tagged (CBF1, Saccharomyces cerevisiae, UniProt P17106, residues 1-351)
# Sequence of UniProt P17106 (whole entry, looked up): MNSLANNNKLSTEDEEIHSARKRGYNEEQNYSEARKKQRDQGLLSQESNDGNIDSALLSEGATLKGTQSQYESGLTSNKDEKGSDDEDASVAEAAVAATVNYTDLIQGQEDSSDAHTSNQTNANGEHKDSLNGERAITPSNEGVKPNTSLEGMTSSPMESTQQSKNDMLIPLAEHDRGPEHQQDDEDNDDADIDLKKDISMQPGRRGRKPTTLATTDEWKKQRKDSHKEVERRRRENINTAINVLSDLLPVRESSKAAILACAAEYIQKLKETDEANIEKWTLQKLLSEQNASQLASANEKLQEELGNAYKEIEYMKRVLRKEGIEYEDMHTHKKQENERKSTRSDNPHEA
# Notes: whole 60-bp probe, lowest competitor level
Oligonucleotide,fluorescence intensity
AAAGCGGTAATTTGTGCGGTGGGTGCAGATATCTAT,79.9 a.u.
CTTCTGTAAATTTGTCTCGTGGGTGGACGCGCCCCG,86.9 a.u.
CATACCCAACCTTGCAGTGTGGGTGAAGATATTTGT,66.2 a.u.
AAGGTTTCGCCGTAGAACGTGCTTTCCAGTTCATGG,112 a.u.
TTCAACGACAGAGGCCTTGTGACGCCCTGGAGCTTG,63.5 a.u.
ATTTGATATGCCTCTCTCGTGGCCGGCCCATTATAT,92.9 a.u.
AAACCACCCTCTTTTCACGTTTCTTCAAGGCCAGTG,90.7 a.u.
AAATTACTAAGTTTTCACGTGAGATACCCCGTATGA,1080 a.u.
TGTAATAGTTGCCATCACGTCGACAGCTTCAATGTT,109 a.u.
CTTCTGTAAATTTTTCACGTGGCCTGACGCGCCCCG,881 a.u.
TTGCTCTTCTATTTGCACGTGAAGCATGCTGAAATC,1420 a.u.
TGTCGTCTCGGTTTTCACGTTGCTAATCGAACGATC,90.8 a.u.
AAATTACTAAGTTGATGTGTGGGTGACGCCGTATGA,64.8 a.u.
CTTGGGCAAGCGAGTCACGTACTTTTTTTTTTTTTT,574 a.u.
TTGCCGTTGCAAGTGAACGTGCAAATGTATTTATAT,116 a.u.
TTCTTCTCCACCTTCCTCGTGATGGTCAGAGCCATC,174 a.u.

# Mixed results
Substance,target,assay,test system,setting,scale,quantity,value
"PhoQ, residues 284 288 289 292 302 303 QWQEDG","PhoP, residues 12 14 15 18 19 AQCLL (Escherichia coli, UniProt P23836)","Sort-seq, item: YFP reporter",E. coli,"PhoQ-PhoP variant library, added: 10 µM Mg2+","baseline: high Mg2+ state, higher = stronger signaling",fold induction,1.68
